Measurements from different studies.
Parts stem from different laboratories: compare values within a part only. Substitutions count along the parent as printed.

Sample 1
Target: Max dimerization protein 1, bHLH-zipper, MAX partner unstated (MXD1, Homo sapiens, UniProt Q05195, residues 56-136)
Technique: protein-binding microarray
Molecule type: double-stranded DNA, one strand shown
Sample: in vitro
Tested at: not given
Setting: k-mer, scored over probes, only values ≥0.25
Reading: higher = stronger binding
Target sequence (chain): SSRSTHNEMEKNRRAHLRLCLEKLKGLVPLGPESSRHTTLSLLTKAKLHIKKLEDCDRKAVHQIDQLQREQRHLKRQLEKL
`ACTCGTGG` gave an E-score of 0.421.
With `CACGTGGC` the E-score was 0.489.
`ACGTGATA` gave an E-score of 0.389.
With `ACTACACG` the E-score was 0.283.
With `ACGGCGTG` the E-score was 0.376.
For `CCACCAGA`, the E-score was 0.28.
The E-score of `GCCCCCCC` is reported as 0.254.
`AGCGCATG` gave an E-score of 0.404.

Sample 2
Target: Histone acetyltransferase KAT6A, both winged helices, GST fusion (KAT6A, Homo sapiens, UniProt Q92794, residues 1-181)
Technique: protein binding microarray
Molecule type: double-stranded DNA, one strand shown
Sample: in vitro
Tested at: not given
Setting: 8-mer, flanks averaged, mean of 2 arrays, mostly near background
Reference: not given
Reading: higher = stronger binding
Construct (chain): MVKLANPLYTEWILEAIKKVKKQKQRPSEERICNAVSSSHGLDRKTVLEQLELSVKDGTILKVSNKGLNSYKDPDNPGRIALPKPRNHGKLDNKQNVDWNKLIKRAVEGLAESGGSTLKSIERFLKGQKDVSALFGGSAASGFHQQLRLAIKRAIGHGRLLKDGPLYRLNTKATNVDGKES
For `CAGGATAG`, the E-score was -0.0558.
The E-score of `CAACAGAA` is reported as -0.099.
The E-score of `CCTTGTCC` is reported as -0.13.
The E-score of `AGTATAAG` is reported as -0.132.
`AGGGGGCA` has an E-score of -0.193.
`AAACCCGT` has an E-score of 0.281.
`GATAATCC` gave an E-score of -0.106.
`AAACTGAT` gave an E-score of -0.0331.

Sample 3
Target: ABI1, truncated, D143A, DHFR fusion (Arabidopsis thaliana)
Technique: DHFR PCA, deep sequencing
Sample: yeast
Setting: methotrexate growth selection, single substitutions
Together with: (+)-ABA 58 µM
Reference: wild-type fitted maximum
Reading: higher = stronger binding
Parent: PYL1, truncated, DHFR fusion (Arabidopsis thaliana); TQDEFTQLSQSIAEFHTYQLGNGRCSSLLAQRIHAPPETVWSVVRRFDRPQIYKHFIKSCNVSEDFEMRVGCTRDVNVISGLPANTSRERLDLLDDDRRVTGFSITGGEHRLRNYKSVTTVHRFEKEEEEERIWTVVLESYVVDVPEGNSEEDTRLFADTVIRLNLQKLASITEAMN; partner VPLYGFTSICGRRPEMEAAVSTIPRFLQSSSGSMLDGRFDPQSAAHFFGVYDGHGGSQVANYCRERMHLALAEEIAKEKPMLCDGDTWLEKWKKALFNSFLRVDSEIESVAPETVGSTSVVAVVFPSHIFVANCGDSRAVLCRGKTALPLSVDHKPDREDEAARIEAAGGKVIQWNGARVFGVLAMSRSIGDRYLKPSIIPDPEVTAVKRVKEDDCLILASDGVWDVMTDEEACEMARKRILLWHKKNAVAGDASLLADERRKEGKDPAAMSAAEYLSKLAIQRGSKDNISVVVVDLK
`I133K` — result for “relative binding score”: 90.3%.
Under “relative binding score”, `V78Q` is recorded as 16.1%.
`K168S`: “relative binding score” 86.5%.
Under “relative binding score”, `R24Q` is recorded as 97.2%.
For `Q7L`, “relative binding score” read 87%.
Under “relative binding score”, `R32T` is recorded as 93.2%.
`Q31C` — result for “relative binding score”: 36.8%.
`R46F` — result for “relative binding score”: 3.33%.

Single results of other studies
For `TTIGEWAFW`, binding read “inactive” (HLA class I histocompatibility antigen, A alpha chain, allele A*80:01 (Homo sapiens, UniProt P04439); peptide-MHC binding; peptide; concentration not given).

Some of these lines once more (sample 1):
The E-score of `GCCCCCCC` is reported as 0.254.
`ACTCGTGG` gave an E-score of 0.421.
